Results from different studies.
Protocols differ between the studies behind these lines. “And” joins repeats or separate records; there may be more than shown. Numbers after ± are the reported error.

SMILES | cell line | test | test system | setting | scale | measurement | result
Clc1ccc(C2(c3ccc(-c4cn[nH]c4)cc3)CCNCC2)cc1 | primary CLL cells | flow cytometry | human | 10 µM, 24 h | relative to: DMSO, higher = more protein | Bcl-2 MFI | 3180 a.u.
CCCCCCNC(=O)CCCSc1nc2ccccc2c(=O)[nH]1 | cells, COS-1, expressing proMMP-9 | cell migration, 2D collagen dot migration | – | 50 µM, 18 h | – | inhibition | 56 ± 1%
O=C(/C=C/c1ccccc1)c1ccc(O[C@@H]2O[C@H](CO)[C@@H](O)[C@H](O)[C@H]2O)cc1O | human iPSC-derived cardiomyocytes | MyBP-C/MYH ratio, plate-normalised SD score | – | concentration not given, primary screen | direction not given | activity score | -3.1
Cc1cc(N2CCN(c3ccc([N+](=O)[O-])c4cccnc34)CC2)c2ccccc2n1 | C127 LDR GFP reporter cells | silenced GFP reporter induction, activator, high-content imaging | – | retest, two-run mean | – | efficacy | 30%
Cc1cccc(-c2[nH]c(CNc3ccccc3F)nc2-c2ccc3ncnn3c2)n1 | MM1.S | XTT | – | 1.4 µM | – | viability | 51% and 62% and 41%
Fc1cccc(F)c1-c1c(Cl)nc(Cl)n1-c1ccccc1Cl | QBI293 | ELISA, refers to: acetylated alpha-tubulin | – | 10 µM | relative to: untreated | fold increase | 3.75
O=C(CCCSc1nc2c(c(=O)[nH]1)CCCC2)Nc1ccc(OC(F)F)cc1 | cells, COS-1, expressing proMMP-9 | cell migration, 2D collagen dot migration | – | 50 µM, 18 h | – | inhibition | 74 ± 2%
CCn1cc(-c2cc(Cn3ccnc3)cc3c2CCN([C@H](c2cc(OC)ccn2)C2CC2)C3=O)c(C(F)(F)F)n1 | SNU478 | cell growth | – | 120 h | – | EC50 | > 30 µM
Nc1cccc2c1C(=O)N(C1CCC(=O)NC1=O)C2=O (centres unmarked) | bone marrow CD138+ myeloma cells | XTT | – | 0.4 µM, phenol red-free RPMI | – | viability | 94%
Cc1cc(=O)[nH]n1-c1nc(-c2ccc(Cl)cc2)c2c(NC(=O)c3ccccc3)nnc-2[nH]1 | NCI60 cell panel | SRB | – | 10 µM | – | mean growth percent | 96.2%
CNCCCOc1cc(F)c(-c2c(Cl)nc3ncnn3c2N[C@@H](C)C(F)(F)F)c(F)c1 | QBI293 | quantitative proteomics | – | 10 µM, 4 h, unit not given | relative to: vehicle | proteins increased over twofold | 16
O=C(Nc1cc(OCCN2CCCC2)c2ccccc2n1)c1cc(Cl)cc(C(=O)Nc2cc(OCCN3CCCC3)c3ccccc3n2)n1 | U2OS | cell viability, CellTiter-Glo | – | 72 h | relative to: IC50 U2OS over WI-38 | selectivity ratio | 6
O=c1[nH]nc(OCCCc2ccc(Cl)cc2)c(NCc2cccnc2)c1Br | HEK-293T | RNA-seq GSEA, refers to: HALLMARK_PROTEIN_SECRETION | – | concentration not given | direction not given | normalized enrichment score | 1.75
COc1ccc(NC(=O)c2sc3nc(-c4ccc(OC)cc4)cc(C(F)(F)F)c3c2N)cc1 | C127 LDR GFP reporter cells | silenced GFP reporter induction, activator, high-content imaging | – | retest, two-run mean | – | efficacy | 122%
O=C1CC[C@@H](C(=O)N2CSC[C@H]2C(=O)O)N1 | human iPSC-derived cardiomyocytes | MyBP-C/MYH ratio, plate-normalised SD score | – | concentration not given, primary screen | direction not given | activity score | 3.2
CC(C)(O)c1coc(S(=O)(=O)NC(=O)Nc2c3c(cc4c2CCC4)CCC3)c1 | THP-1 cells, LPS-primed | pyroptosis, LDH release | – | 25 µM, LPS 1 µg/mL, 4 h, added: nigericin 5 µM, 2 h | – | cell lysis | 24.4%
CC1=CC2C(CC1=O)C(C)=CCC2C(C)C (centres unmarked) | human iPSC-derived cardiomyocytes | MyBP-C/MYH ratio, plate-normalised SD score | – | concentration not given, primary screen | direction not given | activity score | 3
COc1cnc2cccc(N3CCc4c(cc(Cn5ccnc5C)cc4-c4cn(C)nc4C(F)(F)F)C3=O)c2c1 | NCI-H838 | cell growth, inhibitor | – | 120 h | – | EC50 | > 30 µM
CCCCc1oc2ccc(NS(C)(=O)=O)cc2c1C(=O)c1ccc(OCCCN(CCCC)CCCC)cc1 | human embryonic stem cell aggregates | mRNA level, microarray, refers to: MEOX1 | – | 0.5 µM, 120 h | relative to: untreated, down-regulated | fold change | 2.3 fold
O=C(C[C@@H](C(F)F)n1ccc(F)n1)N1CCC(O)(Cn2cnc3c(cnn3-c3ccc(F)cc3)c2=O)CC1 | CHP-212 parental | PI flow cytometry | – | 0.3 µM, 24 h | – | S phase cells | 17.2%
CC12CC3CC(C)(C1)CC(N)(C3)C2 | human iPSC-derived cardiomyocytes | MyBP-C/MYH ratio, plate-normalised SD score | – | concentration not given, primary screen | direction not given | activity score | 3.1
COc1ccc(Nc2nc3c(S(=O)(=O)c4ccccc4)nnn3c3ccc(Cl)cc23)cc1 | C127 LDR GFP reporter cells | silenced GFP reporter induction, activator, high-content imaging | – | retest, two-run mean | – | efficacy | 36%
CCn1cc(-c2cc(Cn3ccoc3=N)cc3c2CCN([C@@H](C)c2cc(OC)ccn2)C3=O)c(C(F)(F)F)n1 | OVISE | cell growth, inhibitor | – | 120 h | – | EC50 | 1.18 µM
CCCN1CCN(c2ccc3[nH]c(-c4ccc5[nH]c(-c6cc(OC)c(OC)c(OC)c6)nc5c4)nc3c2)CC1 | M14 | SRB | – | 10 µM, 48 h | – | growth percent | 63.9%
Cn1cc(Nc2nccc(-c3ccc4c(c3)CN(C3COC3)CC[C@H]4NC(=O)c3cn(C(C)(C)C)nn3)n2)cn1 | mouse splenic B cells | refers to: IL-7 signalling pathway | – | 30 mg/kg, IgD-activated in vivo | relative to: vehicle, direction not given | pathway activation z-score | 0.277

SMILES | cell line | test | test system | setting | scale | measurement | result
CC(C)NCC(O)c1ccc(O)c(O)c1 (centres unmarked) | mouse ventricular cardiomyocytes | – | – | dose not given, 0.267 s | – | sarcomere length | 1.8 µm
COc1ccc(-n2nc(C(C)=O)s/c2=N\N=C(/C)c2ccc(NC(=O)c3ccc(Cl)cc3)cc2)cc1 | MCF7 | – | – | 0.156 µM | – | viability | 48.3%
CSc1cc(Oc2ccnc3[nH]c(=O)cnc23)ccc1NC(=O)Nc1cc(C(C)(C)C)nn1-c1ccccc1 | patient-derived B cell clone line | reverse phase protein array | human | 1 µM, 4 h | relative to: DMSO | phosphorylated STAT5 level | 0.71
C=CCn1c(=O)c2cnc(Nc3ccc(N4CCN(C)CC4)cc3)nc2n1-c1ccc2c(n1)[C@@](O)(CC)CC2 | Kuramochi | flow cytometry, refers to: pHH3+ γH2AX- | – | concentration not given | – | mitotic γH2AX-negative G2/M cells | 3.8%
CCCCCCOC(=O)[C@]1(O)C[C@@H]2O[C@@]1(C)n1c3ccccc3c3c4c(c5c6ccccc6n2c5c31)C(=O)NC4 | SK-OV-3 | ATP | 2D monolayer culture | 0.01 µM, 4 days | relative to: untreated | relative cell number | 130%
O=C(/C=C/C=C/C=C/C1CCCCC1)NC1=C[C@@](O)(/C=C/C=C/C=C/C(=O)NC2=C(O)CCC2=O)[C@@H]2O[C@@H]2C1=O | EBC-1 | cell growth, CellTiter-Glo | – | 78 h | – | GI50 | 11.9 µM
Cc1ccc(NC(=O)c2c(C)nc3sc(C(=O)NC4CCCC4)c(N)c3c2-c2ccco2)c(C)c1 | C127 LDR GFP reporter cells | silenced GFP reporter induction, activator, high-content imaging | – | retest, two-run mean | – | efficacy | 50%
Cc1cc(Nc2ncc(Cl)c(Nc3ccccc3S(=O)(=O)C(C)C)n2)c(OC(C)C)cc1C1CCNCC1 | CLB-GE | phosphoproteomics LC-MS/MS, refers to: SLC35B3 phosphorylation | – | 200 nM, 60 min | relative to: untreated | log2 fold change | -1.51
COc1cc(C(=O)Nc2cc(OCCN3CCCC3)c3ccccc3n2)nc(C(=O)Nc2cc(OCCN3CCCC3)c3ccccc3n2)c1 | U2OS | cell viability, CellTiter-Glo | – | 72 h | relative to: IC50 U2OS over WI-38 | selectivity ratio | 2.4
COc1ccc2c(c1)c(CC(=O)OCC(=O)O)c(C)n2C(=O)c1ccc(Cl)cc1 | human iPSC-derived cardiomyocytes | MyBP-C/MYH ratio, plate-normalised SD score | – | concentration not given, primary screen | direction not given | activity score | 4
O=C(Nc1nnc2[nH]c(=S)[nH]c(-c3ccc(Cl)cc3)c1-2)c1ccccc1 | NCI60 cell panel | SRB | – | 10 µM | – | mean growth percent | 98.2%
C=Cc1c2[n-]c(c1C)/C=c1\[n-]/c(c(C)c1C=C)=C\c1[n-]c(c(CCC(=O)O)c1C)/C=c1\[n-]c(c(C)c1CCC(=O)O)=C2.[Sn+4] | SH-SY5Y | RNA-seq, refers to: PLK2 mRNA | – | 5 µM, 5 h | relative to: untreated cells | fold change | 1.66
COc1ccc(NC(=S)N/N=C/c2cccc3cc4ccccc4nc23)cc1 | HeLa | annexin V/PI flow cytometry | – | IC25, 48 h, added: N-acetylcysteine | – | necrotic cells | 2.8 ± 0.1%
C[C@@]12C(=O)OC(=O)[C@]1(C)[C@H]1CC[C@@H]2O1 | MYBPC3 iPSC cardiomyocytes | plate-normalised | – | concentration not given, 24 h, hit retest | – | MyBP-C level | 2%
Cc1nn(-c2nc3c(F)cc(F)cc3s2)c(O)c1C(c1ccc(C(F)(F)F)cc1)c1c(C)nn(-c2nc3c(F)cc(F)cc3s2)c1O | THP1-Dual | western blot | – | 40 µM, added: HT-DNA | relative to: DMSO | phospho-IRF3 to IRF3 ratio | 0.084 and 0.117 and 0.145
Cc1ccc(Sc2cc(NCCCO)c([N+](=O)[O-])c3nonc23)cc1 | C127 LDR GFP reporter cells | silenced GFP reporter induction, activator, high-content imaging | – | retest, two-run mean | – | efficacy | 74%
Cc1nc(NC(=O)N2CCC[C@H]2C(N)=O)sc1-c1ccnc(C(C)(C)C(F)(F)F)c1 | TCC-SUP | cell growth, CellTiter-Glo | – | 120 h | – | Hill coefficient | 0.979
Clc1nc(NCc2ccco2)c2[nH]cnc2n1 | FD iPSC-derived cardiomyocytes | alternative splicing, RNA-seq, refers to: BRD8 exon chr5:138159554-138159599 | – | unit not given | relative to: DMSO minus compound | ΔPSI | -0.214
Cc1c(C(=O)O)ccc2c3n(nc12)[C@@H]1[C@H](C3)N(CC2CC2)[C@@]2(C(=O)Nc3cc(Cl)ccc32)[C@H]1c1cccc(Cl)c1F | JAR | cell growth, alamarBlue | – | unbound | – | GI50 | 0.00085 µM
COc1cc(/C=C/C(=O)N2CCC=CC2=O)cc(OC)c1OC | MDA-MB-468 | quantitative RT-PCR, refers to: Survivin | – | 30 µM, 8 h | relative to: untreated | mRNA level | 57.7 ± 3.4%
O=c1cc(-c2ccccc2)oc2cc(O)cc(O)c12 | human iPSC-derived cardiomyocytes | MyBP-C/MYH ratio, plate-normalised SD score | – | concentration not given, primary screen | direction not given | activity score | 3.2
CSCC[C@H](NC(=O)[C@H](Cc1ccc(OS(=O)(=O)O)cc1)NC(=O)[C@@H](N)CC(=O)O)C(=O)NCC(=O)N[C@@H](Cc1c[nH]c2ccccc12)C(=O)N[C@@H](CCSC)C(=O)N[C@@H](CC(=O)O)C(=O)N[C@@H](Cc1ccccc1)C(N)=O | HEK293T control virus | agonist, calcium mobilization | – | 0.0256 nM, no receptor expressed | higher = more calcium release | calcium response | 0.131 a.u. and 0.0891 a.u.
CCN(CC)CCNC(=O)c1cc(Br)c(N)cc1OC | human iPSC-derived cardiomyocytes | MyBP-C/MYH ratio, plate-normalised SD score | – | concentration not given, primary screen | direction not given | activity score | 3.7
Cn1cc(-c2ccc(-c3cncc(Cl)c3N3CCC4(CCNC4=O)CC3)cc2)cn1 | COLO 205 | microarray, refers to: NFE2L2 | – | concentration not given, 6 h, gene set NRF2 | relative to: untreated cells | fold change in expression | -1.16
C=CC1=C(C)c2cc3[n-]c(cc4nc(cc5[n-]c(cc1n2)c(C)c5C=C)C(C)=C4CCC(=O)O)c(CCC(=O)O)c3C.[Zn+2] | SH-SY5Y | RNA-seq, refers to: HSPB7 mRNA | – | 5 µM, 5 h | relative to: untreated cells | fold change | 1.5
